# Published values collected from several papers.
# Parts stem from different laboratories: compare values within a part only.

# Block 1 — method: universal PBM; molecule type: double-stranded DNA, one strand shown; medium: in vitro; concentration: not given; direction: higher = stronger binding
# Target: Sal-like protein 4, full length isoform B (SALL4, Homo sapiens, UniProt Q9UJQ4-2, residues 1-616)
# Notes: 8-mer, flanks averaged, mean of replicates
# Construct (chain): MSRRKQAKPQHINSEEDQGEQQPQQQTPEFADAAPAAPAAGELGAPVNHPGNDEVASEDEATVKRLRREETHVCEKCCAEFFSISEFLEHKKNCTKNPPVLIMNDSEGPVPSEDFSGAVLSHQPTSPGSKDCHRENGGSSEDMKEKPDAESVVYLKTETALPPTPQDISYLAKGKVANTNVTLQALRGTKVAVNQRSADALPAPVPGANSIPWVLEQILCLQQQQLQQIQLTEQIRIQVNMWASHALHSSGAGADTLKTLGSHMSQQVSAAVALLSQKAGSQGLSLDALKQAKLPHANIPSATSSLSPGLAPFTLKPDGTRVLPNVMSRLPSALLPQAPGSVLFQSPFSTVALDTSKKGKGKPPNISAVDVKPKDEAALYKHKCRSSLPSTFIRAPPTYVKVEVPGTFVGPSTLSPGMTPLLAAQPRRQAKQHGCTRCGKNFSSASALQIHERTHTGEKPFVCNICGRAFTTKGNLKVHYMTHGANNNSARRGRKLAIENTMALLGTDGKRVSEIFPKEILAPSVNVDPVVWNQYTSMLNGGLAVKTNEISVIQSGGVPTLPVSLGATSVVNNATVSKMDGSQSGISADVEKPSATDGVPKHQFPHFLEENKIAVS
Strand,E-score
AAAGTGAG,0.0531
TAAAACTA,0.322
ATTTAATC,0.301
AGTTCGGA,-0.194
ACGCTCGC,-0.259
CTCTATAC,0.0573
CCGCTATA,0.19
CCGGGCCA,-0.373

# Block 2 — method: protein-binding microarray; molecule type: double-stranded DNA, one strand shown; medium: in vitro; concentration: 2540 nM top; notes: 60-bp whole probe; with: salmon DNA 0.4 mg/ml; reference: random background probes; direction: higher = stronger binding; constant ends, left off below: GCCTAGCAC … GTCTTGATTCGCTTGACGCTGCTG
# Target: Interferon regulatory factor 3, full length, phosphomimetic (IRF3, Homo sapiens, UniProt Q14653, residues 1-427, S386D/S396D/S398D/S402D/T404D/S405D)
# UniProt Q14653, sequence (whole entry, unmodified, looked up): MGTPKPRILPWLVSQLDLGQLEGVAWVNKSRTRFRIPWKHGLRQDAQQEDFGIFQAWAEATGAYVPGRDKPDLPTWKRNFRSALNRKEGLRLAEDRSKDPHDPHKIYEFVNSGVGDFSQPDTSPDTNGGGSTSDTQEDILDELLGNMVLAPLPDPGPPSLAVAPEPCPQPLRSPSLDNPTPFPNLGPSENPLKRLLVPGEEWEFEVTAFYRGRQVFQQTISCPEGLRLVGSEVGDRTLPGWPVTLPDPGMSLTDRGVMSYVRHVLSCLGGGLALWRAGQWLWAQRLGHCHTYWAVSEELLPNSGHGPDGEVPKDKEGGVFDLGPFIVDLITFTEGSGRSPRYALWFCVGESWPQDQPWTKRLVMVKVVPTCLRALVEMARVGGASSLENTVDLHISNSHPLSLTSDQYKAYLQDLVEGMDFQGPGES
Strand,fitted relative affinity [z-score]
GACGGTGTCGACTTTCGGGACGTGCTA,1.33
ATAGGTTTCGACACTGGGTTAGTGCTA,2.67
TCAGGTTTCGACACTGGGTTAGTGCTA,2.46
TCAGGTATCGGGACTGGGTTAGTGCTA,1.57
GACGACTTCGGGACTGGAGACGTGCTA,-0.436
GACGGTTTCCTTTTCCAGACGTGCTAG,11.3
AGGAGTATTTATCTGCAAAGGTGCTAG,-0.0452
TTAGATTCCAGTTTCGATGAGTGCTAG,3.96

# Block 3 — method: protein binding microarray; molecule type: double-stranded DNA, one strand shown; medium: in vitro; concentration: not given; reference: not given; direction: higher = stronger binding
# Target: Histone acetyltransferase KAT6A, both winged helices, GST fusion (KAT6A, Homo sapiens, UniProt Q92794, residues 1-181)
# Notes: 8-mer, flanks averaged, mean of 2 arrays, mostly near background
# Construct (chain): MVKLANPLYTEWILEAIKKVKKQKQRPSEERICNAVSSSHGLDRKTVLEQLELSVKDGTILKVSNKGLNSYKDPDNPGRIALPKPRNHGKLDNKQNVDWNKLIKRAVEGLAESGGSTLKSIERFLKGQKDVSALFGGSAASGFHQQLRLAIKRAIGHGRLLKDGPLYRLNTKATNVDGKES
Strand,E-score
AGCTAGAT,-0.306
GACCCCTA,-0.213
CTGCATTC,-0.0519
GTAGACTA,-0.0728
AGCACCCT,-0.161
GTAGGGCA,-0.0797
ACCCGGCT,0.181

# Other studies, line by line
Substance,target,test,test system,setting,how to read,quantity,value
"PhoQ, residues 284 288 289 292 302 303 STVVAA","PhoP, residues 12 14 15 18 19 HEGLL (Escherichia coli, UniProt P23836)","Sort-seq, measured: YFP reporter",E. coli,"PhoQ-PhoP variant library, with: 10 µM Mg2+","reference: high Mg2+ state, higher = stronger signaling",fold induction,1.04

# For quick reference, copied from above (block 3):
Strand,E-score
AGCTAGAT,-0.306
GACCCCTA,-0.213
CTGCATTC,-0.0519
GTAGACTA,-0.0728
